Published values of several laboratories.
Parts stem from different laboratories: compare values within a part only.
UniProt Q04771, sequence (whole entry, looked up): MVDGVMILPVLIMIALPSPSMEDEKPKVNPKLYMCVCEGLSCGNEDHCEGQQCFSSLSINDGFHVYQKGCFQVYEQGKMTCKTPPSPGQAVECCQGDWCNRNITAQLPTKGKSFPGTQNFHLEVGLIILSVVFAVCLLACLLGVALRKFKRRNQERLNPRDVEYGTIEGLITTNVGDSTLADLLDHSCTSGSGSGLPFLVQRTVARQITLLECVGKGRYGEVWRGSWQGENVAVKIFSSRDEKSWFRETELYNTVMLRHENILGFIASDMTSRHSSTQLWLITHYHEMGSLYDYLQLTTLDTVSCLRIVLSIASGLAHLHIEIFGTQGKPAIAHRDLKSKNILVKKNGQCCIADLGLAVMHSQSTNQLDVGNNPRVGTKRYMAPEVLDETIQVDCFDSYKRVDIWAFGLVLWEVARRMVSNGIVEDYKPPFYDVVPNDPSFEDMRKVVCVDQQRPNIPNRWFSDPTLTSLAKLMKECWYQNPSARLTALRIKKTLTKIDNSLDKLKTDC

Set 1
Target: Prothrombin, mature alpha-thrombin (F2, Homo sapiens, UniProt P00734)
Technique: aptamer microarray, sandwich
Molecule type: DNA with 2'F-ANA
Matrix: in vitro
Tested at: 200 nM
Notes: whole 15-mer aptamer, many near background
Together with: Cy3 exosite-II aptamer, 400 nM
Direction: higher = stronger binding
Quantity: mean fluorescence intensity
Sequence: GGTTGGTGTGGTTGG
2'F-ANA at 1 7 8 10 12 14: 46.5 a.u.
2'F-ANA at 2 4 7 9 13 15: 214 a.u.
2'F-ANA at 2 3 5 6 7 9 15: 81.6 a.u.
2'F-ANA at 1 2 4 5 7 9 13 15: 48.3 a.u.
2'F-ANA at 1 2 3 4 5 6 8 9 10 12 14 15: 53.1 a.u.
2'F-ANA at 3 5 6 7 9 12 14 15: 56.9 a.u.
2'F-ANA at 1 3 4 5 6 7 13 14: 55.1 a.u.
2'F-ANA at 1 6 9 10 12: 62.4 a.u.

Set 2
Target: TAR DNA-binding protein 43, full length, His tag (TARDBP, Homo sapiens, UniProt Q13148, residues 1-414)
Technique: RNA Bind-n-Seq
Molecule type: RNA
Matrix: in vitro
Tested at: 20 nM
Notes: 6-mer, flanks averaged, single round
Together with: 150 mM LiCl
Reference: input library
Direction: higher = stronger binding
Quantity: 6-mer enrichment (R)
AAGGAU: 0.871
ACGACU: 0.79
AGAGUG: 1.28
CUUGUU: 1.14
UGUCUU: 1.06
UUCGAC: 0.83
UUGAUG: 1.1
CUUAUC: 0.907

Further values, each from its own experiment
EIF2S3 (Homo sapiens, UniProt P41091) — cross-linked residues (CGN (Homo sapiens, UniProt Q9P2M7); cross-linking MS; cell fractions; together with: DSSO): S198 to T472
COc1ccc(C(=O)Nc2sc3c(c2C(N)=O)CCCC3)cc1OC — remaining activity (ACVR1 (Homo sapiens, UniProt Q04771); enzyme activity, inhibitor; 0.5 µM; reference: control): 159%
NOL6 (Homo sapiens, UniProt Q9H6R4) — interaction screen (RRP7A (Homo sapiens, UniProt Q9Y3A4); cross-linking MS; hits only): cross-linked
